Results gathered from unrelated publications.
Each numbered part is a random draw from the data of one study; scales do not carry over between parts. Values joined by “and” are separate records of one study, mostly repeats; a detail may differ.
Chain of UniProt O75676 (whole entry, looked up): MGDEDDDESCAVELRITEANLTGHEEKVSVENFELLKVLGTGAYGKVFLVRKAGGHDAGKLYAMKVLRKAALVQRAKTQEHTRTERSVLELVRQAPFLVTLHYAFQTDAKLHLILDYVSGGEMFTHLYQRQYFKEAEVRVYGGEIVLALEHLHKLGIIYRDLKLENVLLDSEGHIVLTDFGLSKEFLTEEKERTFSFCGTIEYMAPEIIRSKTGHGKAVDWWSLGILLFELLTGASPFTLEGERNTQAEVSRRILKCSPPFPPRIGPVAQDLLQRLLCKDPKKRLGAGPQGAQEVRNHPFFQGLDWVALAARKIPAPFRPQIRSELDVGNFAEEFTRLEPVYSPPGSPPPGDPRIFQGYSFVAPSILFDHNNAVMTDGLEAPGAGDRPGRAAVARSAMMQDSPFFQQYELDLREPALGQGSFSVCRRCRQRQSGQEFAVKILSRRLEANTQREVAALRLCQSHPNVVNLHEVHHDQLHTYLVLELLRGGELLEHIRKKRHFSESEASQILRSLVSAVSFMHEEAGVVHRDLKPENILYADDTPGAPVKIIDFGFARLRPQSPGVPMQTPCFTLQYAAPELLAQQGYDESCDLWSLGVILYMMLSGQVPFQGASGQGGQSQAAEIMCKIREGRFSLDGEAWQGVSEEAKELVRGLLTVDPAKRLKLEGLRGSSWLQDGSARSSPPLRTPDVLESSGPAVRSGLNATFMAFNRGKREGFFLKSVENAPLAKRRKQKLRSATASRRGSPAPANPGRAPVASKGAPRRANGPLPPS
Chain of UniProt Q6ZWH5 (whole entry, looked up): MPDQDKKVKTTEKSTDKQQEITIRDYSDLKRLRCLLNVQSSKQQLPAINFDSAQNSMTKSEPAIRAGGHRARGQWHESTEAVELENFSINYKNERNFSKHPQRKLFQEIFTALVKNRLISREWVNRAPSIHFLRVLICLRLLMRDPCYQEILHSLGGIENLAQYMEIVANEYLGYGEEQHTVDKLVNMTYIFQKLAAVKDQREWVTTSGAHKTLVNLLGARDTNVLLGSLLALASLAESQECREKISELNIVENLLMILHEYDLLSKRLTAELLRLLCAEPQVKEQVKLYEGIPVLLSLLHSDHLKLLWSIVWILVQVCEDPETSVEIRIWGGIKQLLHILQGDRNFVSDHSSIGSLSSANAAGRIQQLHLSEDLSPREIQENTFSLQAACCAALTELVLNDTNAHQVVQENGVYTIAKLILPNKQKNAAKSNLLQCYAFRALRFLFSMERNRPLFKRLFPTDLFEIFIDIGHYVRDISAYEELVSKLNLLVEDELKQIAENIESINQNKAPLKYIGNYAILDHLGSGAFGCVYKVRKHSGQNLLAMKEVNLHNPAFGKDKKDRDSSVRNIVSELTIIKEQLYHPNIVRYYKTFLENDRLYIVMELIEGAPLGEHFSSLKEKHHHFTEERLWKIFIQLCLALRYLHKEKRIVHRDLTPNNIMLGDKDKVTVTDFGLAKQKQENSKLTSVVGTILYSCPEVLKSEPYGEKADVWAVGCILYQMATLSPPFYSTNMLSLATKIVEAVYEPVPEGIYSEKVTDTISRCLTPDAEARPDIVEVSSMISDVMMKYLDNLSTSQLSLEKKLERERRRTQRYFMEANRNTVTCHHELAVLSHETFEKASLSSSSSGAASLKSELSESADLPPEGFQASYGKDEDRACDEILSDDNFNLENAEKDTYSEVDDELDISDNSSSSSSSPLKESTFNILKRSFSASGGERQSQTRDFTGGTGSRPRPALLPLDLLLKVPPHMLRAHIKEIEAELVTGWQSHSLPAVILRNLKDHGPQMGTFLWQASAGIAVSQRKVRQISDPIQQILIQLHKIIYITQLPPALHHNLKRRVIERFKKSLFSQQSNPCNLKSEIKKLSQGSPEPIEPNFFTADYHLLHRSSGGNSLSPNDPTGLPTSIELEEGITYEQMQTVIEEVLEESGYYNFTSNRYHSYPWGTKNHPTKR
Chain of UniProt Q15746 (whole entry, looked up): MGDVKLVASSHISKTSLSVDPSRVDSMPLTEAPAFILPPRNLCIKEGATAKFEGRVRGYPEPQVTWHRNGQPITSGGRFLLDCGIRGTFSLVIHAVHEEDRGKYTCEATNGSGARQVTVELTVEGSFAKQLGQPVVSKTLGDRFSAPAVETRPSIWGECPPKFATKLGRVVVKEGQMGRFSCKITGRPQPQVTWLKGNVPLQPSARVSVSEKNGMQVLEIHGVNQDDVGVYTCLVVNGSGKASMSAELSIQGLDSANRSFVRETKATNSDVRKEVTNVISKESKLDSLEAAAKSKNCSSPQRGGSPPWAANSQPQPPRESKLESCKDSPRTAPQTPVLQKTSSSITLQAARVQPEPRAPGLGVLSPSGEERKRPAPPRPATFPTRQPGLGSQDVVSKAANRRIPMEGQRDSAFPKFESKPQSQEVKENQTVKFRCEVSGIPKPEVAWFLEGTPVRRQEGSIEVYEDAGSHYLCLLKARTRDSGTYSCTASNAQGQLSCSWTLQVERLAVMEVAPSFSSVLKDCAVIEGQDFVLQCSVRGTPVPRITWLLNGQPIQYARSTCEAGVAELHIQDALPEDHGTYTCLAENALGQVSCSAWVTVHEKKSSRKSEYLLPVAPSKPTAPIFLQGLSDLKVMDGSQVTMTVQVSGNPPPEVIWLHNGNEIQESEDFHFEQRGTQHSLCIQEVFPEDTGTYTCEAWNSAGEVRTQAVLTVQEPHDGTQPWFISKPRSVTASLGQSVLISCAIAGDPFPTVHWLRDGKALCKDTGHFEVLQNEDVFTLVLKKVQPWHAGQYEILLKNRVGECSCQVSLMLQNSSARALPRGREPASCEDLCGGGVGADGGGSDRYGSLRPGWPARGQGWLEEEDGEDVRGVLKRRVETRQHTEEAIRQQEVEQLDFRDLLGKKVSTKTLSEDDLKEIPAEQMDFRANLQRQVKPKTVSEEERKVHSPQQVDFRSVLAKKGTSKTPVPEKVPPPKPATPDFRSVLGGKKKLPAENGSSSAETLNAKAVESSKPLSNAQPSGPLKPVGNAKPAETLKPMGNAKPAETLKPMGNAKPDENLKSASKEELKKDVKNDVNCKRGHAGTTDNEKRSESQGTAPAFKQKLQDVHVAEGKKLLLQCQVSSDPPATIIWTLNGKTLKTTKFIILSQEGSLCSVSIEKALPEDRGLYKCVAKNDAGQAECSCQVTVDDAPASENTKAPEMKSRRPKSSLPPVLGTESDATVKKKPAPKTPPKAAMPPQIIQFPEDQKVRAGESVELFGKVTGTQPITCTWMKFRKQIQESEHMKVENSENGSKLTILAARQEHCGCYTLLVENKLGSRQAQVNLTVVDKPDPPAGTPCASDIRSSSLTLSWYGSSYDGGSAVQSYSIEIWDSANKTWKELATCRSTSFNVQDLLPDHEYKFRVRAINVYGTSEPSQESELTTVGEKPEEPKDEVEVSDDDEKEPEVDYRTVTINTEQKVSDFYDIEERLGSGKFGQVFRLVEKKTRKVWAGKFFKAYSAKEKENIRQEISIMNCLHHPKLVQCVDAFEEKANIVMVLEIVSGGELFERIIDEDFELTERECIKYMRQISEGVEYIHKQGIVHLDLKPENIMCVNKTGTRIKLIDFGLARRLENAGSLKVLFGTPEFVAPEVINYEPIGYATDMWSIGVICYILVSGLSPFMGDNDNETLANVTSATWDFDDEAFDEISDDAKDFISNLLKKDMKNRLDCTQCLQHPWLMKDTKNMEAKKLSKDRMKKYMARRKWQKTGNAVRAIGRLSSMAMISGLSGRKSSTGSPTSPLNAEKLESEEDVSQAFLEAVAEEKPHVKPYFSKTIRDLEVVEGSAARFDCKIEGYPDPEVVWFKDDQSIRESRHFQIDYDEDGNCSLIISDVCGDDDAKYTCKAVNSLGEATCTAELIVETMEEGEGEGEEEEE

Set 1 — observed: enzyme activity; action: inhibitor; tested at: 0.5 µM; relative to: control
Target: Serine/threonine-protein kinase 25 (STK25, Homo sapiens, UniProt O00506)
Chain of UniProt O00506 (whole entry, looked up): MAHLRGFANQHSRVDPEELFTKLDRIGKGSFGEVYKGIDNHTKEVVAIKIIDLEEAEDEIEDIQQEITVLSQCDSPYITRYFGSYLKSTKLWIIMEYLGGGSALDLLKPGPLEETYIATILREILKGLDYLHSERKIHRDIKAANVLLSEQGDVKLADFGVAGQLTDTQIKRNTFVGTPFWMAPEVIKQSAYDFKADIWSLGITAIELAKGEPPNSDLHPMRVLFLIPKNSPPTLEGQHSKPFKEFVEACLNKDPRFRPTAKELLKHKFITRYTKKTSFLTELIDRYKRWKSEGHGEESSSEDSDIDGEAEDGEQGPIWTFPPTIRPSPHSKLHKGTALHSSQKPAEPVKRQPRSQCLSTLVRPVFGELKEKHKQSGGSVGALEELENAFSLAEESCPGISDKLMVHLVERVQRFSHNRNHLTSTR
SMILES | remaining activity
NCCNc1ncc(C(N)=O)c(Nc2cccc(C(F)(F)F)c2)n1 | 97.7%
CO[C@H]1C[C@@H]2CC[C@@H](C)[C@@](O)(O2)C(=O)C(=O)N2CCCC[C@H]2C(=O)O[C@H]([C@H](C)C[C@@H]2CC[C@@H](O)[C@H](OC)C2)CC(=O)[C@H](C)/C=C(\C)[C@@H](O)[C@@H](OC)C(=O)[C@H](C)C[C@H](C)/C=C/C=C/C=C/1C | 129%
O=C(Nc1cccc(Nc2cc(Nc3cccc(C(F)(F)F)c3)ncn2)c1)C1CC1 | 97.4%
Cc1cccc(-c2[nH]c(C(C)(C)C)nc2-c2ccc3c(c2)OCO3)n1 | 104%
CNC(=O)c1cc(Oc2ccc(NC(=O)Nc3ccc(Cl)c(C(F)(F)F)c3)cc2)ccn1 | 104%
COc1ccc(CNC(=O)Nc2ncc([N+](=O)[O-])s2)cc1 | 98.6%
O=S(=O)(c1cccc2cnccc12)N1CCCNCC1 | 84.8%

Set 2 — method: trypan blue exclusion; time: 48 h; relative to: untreated
Structure (SMILES): O=C(NC1CCNCC1)c1n[nH]cc1NC(=O)c1c(Cl)cccc1Cl
cell line | setting | viability
HuT78 | 10 µM | 24.2% and 30%
HH | 0.1 µM | 70.6% and 90% and 92.1%
HuT78 | 0.1 µM | 103% and 101%
HH | 0.01 µM | 100% and 101%
HuT78 | 0.0001 µM | 104%
HH | 0.5 µM | 22.6% and 21.3%
HH | 10 µM | 0% and 3.05% and 3.06%

Set 3 — cell line: HEK293; method: CellTiter-Glo; relative to: vehicle
Structure (SMILES): CC(C)C(=O)N1CCN(c2nc(OC[C@@H]3CCCN3C)nc3c2CCN(c2cccc4cccc(Cl)c24)C3)C[C@@H]1CC#N
setting | viability
2.5 µM | 80.3% and 84.2% and 90.8%
5 µM | 58.7% and 48.5% and 56%
312 nM | 91% and 100% and 99.9%
625 nM | 102% and 92.9% and 96.8%

Set 4 — observed: cell-free assay; method: competition with immobilised ligand; tested at: 1 µM
SMILES: CN1CCN(c2cnc3c(C4CCN(C(=O)c5ccc(OC(F)(F)F)cc5N)CC4)ncnc3c2)CC1
target | remaining binding [%]
Ribosomal protein S6 kinase alpha-4, C-terminal kinase domain (RPS6KA4, Homo sapiens, UniProt O75676) | 100
Serine/threonine-protein kinase Nek10 (NEK10, Homo sapiens, UniProt Q6ZWH5) | 100
Homeodomain-interacting protein kinase 1 (HIPK1, Homo sapiens, UniProt Q86Z02) | 99
Myosin light chain kinase, smooth muscle (MYLK, Homo sapiens, UniProt Q15746) | 88
Dual specificity tyrosine-phosphorylation-regulated kinase 1A (DYRK1A, Homo sapiens, UniProt Q13627) | 100

Repeated from above (set 3):
setting | viability
5 µM | 58.7% and 48.5% and 56%
312 nM | 91% and 100% and 99.9%
625 nM | 102% and 92.9% and 96.8%
